# Published values from different studies.
# Numbered parts are unrelated; each lists some results of a single study.

# Block 1 — technique: RNA Bind-n-Seq; molecule type: RNA; sample: in vitro; tested at: 20 nM; setting: 6-mer, flanks averaged, single round; together with: 150 mM KCl; baseline: input library; reading: higher = stronger binding
# Target: TAR DNA-binding protein 43, full length, His tag (TARDBP, Homo sapiens, UniProt Q13148, residues 1-414)
Oligonucleotide,6-mer enrichment (R)
GACUUG,0.858
UUCCAA,0.577
CCGUGG,1.46
UACGAG,0.963
UUCAGU,0.603

# Block 2 — technique: RNA Bind-n-Seq; molecule type: RNA; sample: in vitro; tested at: 1 µM; setting: whole 134-nt RNA, ends assumed; together with: 150 mM KCl; baseline: input library; reading: higher = stronger binding
# Target: Ras GTPase-activating protein-binding protein 1, RRM domain (G3BP1, Homo sapiens, UniProt Q13283)
# UniProt Q13283, sequence (whole entry, looked up): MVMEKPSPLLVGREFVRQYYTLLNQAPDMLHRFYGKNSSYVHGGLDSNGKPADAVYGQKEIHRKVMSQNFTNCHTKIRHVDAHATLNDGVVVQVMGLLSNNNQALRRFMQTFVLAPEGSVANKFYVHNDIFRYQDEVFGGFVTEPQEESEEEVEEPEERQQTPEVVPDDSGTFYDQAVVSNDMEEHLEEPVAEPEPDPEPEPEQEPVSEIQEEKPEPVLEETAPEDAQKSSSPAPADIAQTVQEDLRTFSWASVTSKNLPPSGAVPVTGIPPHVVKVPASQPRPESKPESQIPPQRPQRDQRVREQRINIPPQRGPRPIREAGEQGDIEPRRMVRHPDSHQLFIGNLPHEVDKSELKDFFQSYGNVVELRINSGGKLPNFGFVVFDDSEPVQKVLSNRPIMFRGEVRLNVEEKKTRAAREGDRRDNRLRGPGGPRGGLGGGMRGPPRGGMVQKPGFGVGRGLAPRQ
Oligonucleotide,log2 enrichment
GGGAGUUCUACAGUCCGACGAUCGUCCUGUGCUACACAUCGUAUGUACCGAAUCGGGUUUUUUUGGGUUUUUUUGGGUGGGAAAGUAUUAUGUUACGCCGUUCGGAUCUGCACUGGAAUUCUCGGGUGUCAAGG,0.156
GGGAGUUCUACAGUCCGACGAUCUCCUGUGCUACACAUCGUAUGUACCGAAUCGGCCCCCCGGGGCCCCCCGGCCCCCCGGGGAAAGUAUUAUGUUACGCCGUUCGGAUCUGCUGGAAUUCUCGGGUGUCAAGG,-0.493
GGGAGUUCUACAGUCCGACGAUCAGUCCUGUGCUACACAUCGUAUGUACCGAAUCAAACCCCCCCAAAUUUAAACCCAAAAAAGUAUUAUGUUACGCCGUUCGGAUCUGCACUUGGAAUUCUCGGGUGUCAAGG,-0.0455
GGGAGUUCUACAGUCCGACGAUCAAGUCCUGUGCUACACAUCGUAUGUACCGAAUCGGGAGGGAAAAAGGGAAAAAGGGAAAGUAUUAUGUUACGCCGUUCGGAUCUGCACUUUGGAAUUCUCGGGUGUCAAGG,0.724
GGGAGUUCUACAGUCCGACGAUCCCUGUGCUACACAUCGUAUGUACCGAAUCGGGUUUUUUGGGGUUUUUUGGGGUUUUUUGGAAAGUAUUAUGUUACGCCGUUCGGAUCUGCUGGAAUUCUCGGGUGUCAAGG,-0.205
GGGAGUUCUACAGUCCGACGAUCUAACUUUAGAGGAGGAUCUGAUGGAUAUGGCAGUGGACGUGGAUUUGGGGAUGGCUAUAAUGGGUAUGGAGGAGUACCUGGAGGUGGCAAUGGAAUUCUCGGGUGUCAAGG,-0.236
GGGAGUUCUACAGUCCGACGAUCUCCUGUGCUACACAUCGUAUGUACCGAAUCAAAGUGUGUGUGUGUGUGUGUGUGUGUAAAAAAGUAUUAUGUUACGCCGUUCGGAUCUGCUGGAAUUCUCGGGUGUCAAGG,0.0886
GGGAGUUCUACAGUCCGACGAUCCAAGUCCUGUGCUACACAUCGUAUGUACCGAAUCGGGUUUGGGGUUUGGGUUUGGGAAAGUAUUAUGUUACGCCGUUCGGAUCUGCACUUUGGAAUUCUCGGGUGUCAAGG,0.579
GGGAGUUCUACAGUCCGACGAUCACCAUGCAGGUGGGCAUCUUUGGGAAGUGGGGCAAGGGGGGGAUAGGGGGGGGGGUAACACUUUGGGAACAGGUGGUCCCAGGUCGUUUCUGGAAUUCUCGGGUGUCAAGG,1.1

# Block 3 — technique: protein binding microarray; molecule type: double-stranded DNA, one strand shown; sample: in vitro; tested at: not given; baseline: not given; reading: higher = stronger binding
# Target: Histone acetyltransferase KAT6A, winged helix 2, GST fusion (KAT6A, Homo sapiens, UniProt Q92794, residues 85-181)
# Setting: 8-mer, flanks averaged, mean of 2 arrays, mostly near background
# Residues (chain): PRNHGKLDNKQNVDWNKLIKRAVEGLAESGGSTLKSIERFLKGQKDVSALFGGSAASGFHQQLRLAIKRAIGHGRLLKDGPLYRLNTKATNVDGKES
Oligonucleotide,E-score
CTGCTGTC,0.0097
AAGAGGCA,0.155
AGAAGCAC,-0.0798
CATGGCGG,0.175
CAGGGGTC,-0.0767
AATATATC,0.0326
CTTGAATA,0.052

# Single results of other studies
Substance,target,test,test system,conditions,how to read,measurement,value
"PhoQ, residues 284 288 289 292 302 303 WVSSAF","PhoP, residues 12 14 15 18 19 LHATL (Escherichia coli, UniProt P23836)","Sort-seq, item: YFP reporter",E. coli,"PhoQ-PhoP variant library, together with: 10 µM Mg2+","baseline: high Mg2+ state, higher = stronger signaling",fold induction,1.87

# For quick reference, copied from above (block 2):
Oligonucleotide,log2 enrichment
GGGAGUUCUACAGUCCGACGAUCUAACUUUAGAGGAGGAUCUGAUGGAUAUGGCAGUGGACGUGGAUUUGGGGAUGGCUAUAAUGGGUAUGGAGGAGUACCUGGAGGUGGCAAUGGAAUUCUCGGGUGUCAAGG,-0.236
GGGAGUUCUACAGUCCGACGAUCUCCUGUGCUACACAUCGUAUGUACCGAAUCAAAGUGUGUGUGUGUGUGUGUGUGUGUAAAAAAGUAUUAUGUUACGCCGUUCGGAUCUGCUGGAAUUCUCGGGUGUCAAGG,0.0886
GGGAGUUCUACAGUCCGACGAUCCAAGUCCUGUGCUACACAUCGUAUGUACCGAAUCGGGUUUGGGGUUUGGGUUUGGGAAAGUAUUAUGUUACGCCGUUCGGAUCUGCACUUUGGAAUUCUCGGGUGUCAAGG,0.579
